Published values from different studies.
Each line is one published result; not all experiments were run side by side. ± marks the error that the study gave.

Under “molar extinction coefficient”, CCCCN1C(=O)c2cccc3c(NCCCCN4CCOCC4)ccc(c23)C1=O is recorded as 7800 M⁻¹ cm⁻¹ (toluene).
C=Cc1ccc([B-]23OC(=O)C(c4ccccc4)=N[N+]2=Cc2ccc(N(CC)CC)cc2O3)cc1 (stereo not drawn): “molar absorption coefficient” 52000 M⁻¹ cm⁻¹ (toluene).
For CC1(C)C(/C=C/C2=C(Cl)C(=C/C=C3/N(CCCCCC(=O)O)c4ccccc4C3(C)C)/C[N+](C)(C)C2)=[N+](CCCCCC(=O)O)c2ccccc21, “molar absorption coefficient” read 234000 M⁻¹ cm⁻¹ (methanol).
CCC1=[N+]2N=C(/C=C/C=C/c3ccc(C(F)(F)F)cc3)C(=O)O[B-]2(c2ccccc2)Oc2cc(N(CC)CC)ccc21 (stereo not drawn) — result for “molar absorption coefficient”: 60000 M⁻¹ cm⁻¹ (toluene).
For CCCCN1C(=O)c2cccc3c(NCCCCCCCCCCN4CCOCC4)ccc(c23)C1=O, “molar extinction coefficient” read 13900 M⁻¹ cm⁻¹ (methanol).
CC1=N/C(=C\c2cc(F)c(O)c(F)c2)C(=O)N1Cc1ccc(CO)cc1: “molar extinction coefficient” 47000 ± 2000 M⁻¹ cm⁻¹ (pH 7.5).
O=C([O-])CN1CCN(CC(=O)[O-])CCN(CC(=O)c2ccc(-c3ccc(OCC(=O)O)cc3)cc2)CCN(CC(=O)[O-])CC1.[Eu+3]: “molar absorption coefficient” 19600 ± 1400 (PBS; pH 7.4, absorbance at 340 nm).
CCCCN1C(=O)c2cccc3c(NCCCCCN4CCOCC4)ccc(c23)C1=O: “molar extinction coefficient” 5610 M⁻¹ cm⁻¹ (dichloromethane).
Under “molar absorption coefficient”, C=Cc1ccccc1[B-]12OC(=O)C(c3ccccc3)=N[N+]1=C(C)c1ccc(N(CC)CC)cc1O2 (stereo not drawn) is recorded as 44000 M⁻¹ cm⁻¹ (toluene).

Repeated from above:
For CCCCN1C(=O)c2cccc3c(NCCCCCCCCCCN4CCOCC4)ccc(c23)C1=O, “molar extinction coefficient” read 13900 M⁻¹ cm⁻¹ (methanol).
